# Assay results collected from several papers.
# Each numbered part is a random draw from the data of one study; scales do not carry over between parts. Changes are numbered by the printed parent chain.

# Block 1 — method: protein binding microarray; form: double-stranded DNA, one strand shown; matrix: in vitro; tested at: not given; reference: not given; reading: higher = stronger binding
# Target: Histone acetyltransferase KAT6A, winged helix 1, GST fusion (KAT6A, Homo sapiens, UniProt Q92794, residues 1-85)
# Notes: 8-mer, flanks averaged, mean of 2 arrays, mostly near background
# Residues (chain): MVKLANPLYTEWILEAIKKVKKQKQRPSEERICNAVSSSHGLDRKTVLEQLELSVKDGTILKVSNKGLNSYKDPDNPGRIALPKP
Sequence,E-score
CAAGACGG,0.0532
AGGATAGG,-0.21
GCGTTGGA,0.139
GCCCGGTA,0.308
ATGCTTGG,-0.133
CACTAATG,-0.129
AGACTTCG,-0.207
AACGTTAT,-0.0769
GAGGGATA,-0.074
AGACGTCC,-0.0659
GTTGTACA,0.00726
CCTAATAC,-0.0557
GTCGACGA,-0.0278
AATTAGGA,-0.0862
GTGTCCAA,-0.131
TCGCGAAA,0.141
AACCACAT,-0.252

# Block 2 — method: RNA Bind-n-Seq; form: RNA; matrix: in vitro; tested at: 200 nM; notes: whole 134-nt RNA, ends assumed; added: 150 mM LiCl; reference: input library; reading: higher = stronger binding; all molecules: 7-deaza-guanosine replaces G
# Target: Fragile X messenger ribonucleoprotein 1, C-terminal low-complexity region (Fmr1, Mus musculus, UniProt P35922)
Sequence,log2 enrichment
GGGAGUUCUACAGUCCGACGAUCUGGGAGGUGGAUUUUGUUUAUUUUUUUAGCUCAUUUCCAGGGGUGGGAAUUUUUUUUUAAUAUGUGCCAUGAAUAAAGUUGUUUUUGAAAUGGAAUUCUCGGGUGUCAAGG,0.361
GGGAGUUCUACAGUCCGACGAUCUCCUGUGCUACACAUCGUAUGUACCGAAUCAAACCCAAAUUUUUUUAAACCCCCCCAAAAAAGUAUUAUGUUACGCCGUUCGGAUCUGCAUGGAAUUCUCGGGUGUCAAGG,1.95
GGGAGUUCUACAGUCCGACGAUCCACAGACAACACGCACCCACACAGACACAGAGGGAAGGGGUUGGGAUGGGGACAGGGUGCACAGAAAGGCGGGGUAGGACCCCAGCCCCUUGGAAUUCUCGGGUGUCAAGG,-0.0707
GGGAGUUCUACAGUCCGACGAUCUCCUGUGCUACACAUCGUAUGUACCGAAUCGGGGUUUUUUUGGGGAAAGGGGUUUGGGGAAAGUAUUAUGUUACGCCGUUCGGAUCUGCAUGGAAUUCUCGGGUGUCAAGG,-0.957
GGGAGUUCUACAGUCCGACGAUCCACAGACAACACGCACCCACACAGACACAGAGGGAAGGGGUUGGGCUGGGGACAGGGUGCACAGCAGGGCGGGGUAGGACCCCAGCCCCUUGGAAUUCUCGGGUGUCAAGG,-0.282
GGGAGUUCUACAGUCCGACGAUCGCAGGAAGUAAAAACAAAUGGAAAUGCUUCGGAUAGUGGCAGGGGUGGGGGUUGCUAAGGAAAGGGUGGGAUGGGAGUGGGUAUAGAGUUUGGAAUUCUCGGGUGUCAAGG,2.85
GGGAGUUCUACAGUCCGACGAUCUGGGAGGUGGAUUUUGUUUAUUUUUUUAGCUCAUUUCCAGGGGUGGGAAUUUUUUUUUAAUAUGUGUCAUGAAUAAAGUUGUUUCUGAAAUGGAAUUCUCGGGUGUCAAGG,-0.163
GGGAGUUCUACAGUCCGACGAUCCUGUGCUACACAUCGUAUGUACCGAAUCGGGGAAAAAAAGGGAAAAAAAGGAAAAAAAGGGGAAAGUAUUAUGUUACGCCGUUCGGAUCUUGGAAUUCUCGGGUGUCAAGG,0.531
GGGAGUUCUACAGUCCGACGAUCAAGUCCUGUGCUACACAUCGUAUGUACCGAAUCGGGAAAAGGGAAAAGGGAAAAGGAAAGUAUUAUGUUACGCCGUUCGGAUCUGCACUUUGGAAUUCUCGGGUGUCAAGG,-0.683
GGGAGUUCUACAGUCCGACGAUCUGGCCCUGGUGGCAUGCUGGGAGGAAGAGGUGGCCUCAUGGAUCGUGGUGGUCCCGGUGGAAUGUUCAGAGGUGGCCGUGGUGGAGACAGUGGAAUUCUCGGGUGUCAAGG,-0.0622
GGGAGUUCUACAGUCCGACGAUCUGGCCCUGGUGGCAUGUGGGGAGGAAGAGGUGGCCUCAUGGAUCGUGGUGGUCCCGGUGGAAUGUUCAGAGGUGGCCGUGGUGGAGACAGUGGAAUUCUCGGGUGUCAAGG,0.256

# Block 3 — method: universal PBM; form: double-stranded DNA, one strand shown; matrix: in vitro; tested at: 600 nM; reading: higher = stronger binding
# Target: Sal-like protein 4, full length isoform A (SALL4, Homo sapiens, UniProt Q9UJQ4, residues 1-1053)
# UniProt Q9UJQ4, sequence (whole entry, looked up): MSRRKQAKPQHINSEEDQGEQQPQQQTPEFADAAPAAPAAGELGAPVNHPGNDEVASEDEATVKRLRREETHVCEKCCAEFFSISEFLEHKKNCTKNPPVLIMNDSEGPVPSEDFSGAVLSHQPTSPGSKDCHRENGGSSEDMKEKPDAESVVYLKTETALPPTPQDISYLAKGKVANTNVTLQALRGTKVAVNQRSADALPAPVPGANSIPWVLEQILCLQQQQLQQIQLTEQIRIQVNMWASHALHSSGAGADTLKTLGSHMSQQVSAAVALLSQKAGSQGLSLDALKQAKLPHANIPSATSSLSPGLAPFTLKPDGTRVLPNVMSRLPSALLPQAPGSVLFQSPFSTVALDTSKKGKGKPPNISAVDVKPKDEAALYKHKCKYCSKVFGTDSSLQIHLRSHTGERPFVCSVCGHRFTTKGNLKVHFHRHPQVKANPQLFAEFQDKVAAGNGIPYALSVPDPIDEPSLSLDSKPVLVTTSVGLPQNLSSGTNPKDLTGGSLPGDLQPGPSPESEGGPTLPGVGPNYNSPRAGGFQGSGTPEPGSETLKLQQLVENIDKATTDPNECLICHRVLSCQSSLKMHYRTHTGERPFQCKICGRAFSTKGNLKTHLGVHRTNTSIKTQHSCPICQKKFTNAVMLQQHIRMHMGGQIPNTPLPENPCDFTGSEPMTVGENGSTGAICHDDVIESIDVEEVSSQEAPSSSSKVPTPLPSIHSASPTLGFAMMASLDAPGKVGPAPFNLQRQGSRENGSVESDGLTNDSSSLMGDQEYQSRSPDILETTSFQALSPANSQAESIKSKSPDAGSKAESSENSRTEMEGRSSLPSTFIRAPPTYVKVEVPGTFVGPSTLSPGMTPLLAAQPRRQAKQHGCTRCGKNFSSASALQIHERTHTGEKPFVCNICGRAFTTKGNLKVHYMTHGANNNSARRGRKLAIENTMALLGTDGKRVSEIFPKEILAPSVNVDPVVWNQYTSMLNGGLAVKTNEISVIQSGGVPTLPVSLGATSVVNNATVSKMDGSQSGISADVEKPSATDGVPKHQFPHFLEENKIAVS
# Notes: 8-mer, flanks averaged, mean of replicates
Sequence,E-score
CATCACAC,-0.0397
AATTTGGA,0.14
CTTACATA,0.247
GCCAAATA,0.107
CTCAACAC,0.0446
GTCGCGAC,-0.0576
TGAGGGCA,-0.0857
GCTGAACA,-0.0597
GGGAACGA,-0.2
CGTGACCA,-0.143
ATCAGCTG,0.034
CGCGGGAA,-0.18
ACGCGCTG,-0.3
GACTAGGC,0.0153
CACGAAAG,0.0253

# Block 4 — target: CCND1, cyclin fold, Cln2 fusion (human); method: yeast growth competition, sequencing; matrix: yeast; notes: weak parent motif; reference: not given; reading: higher = stronger binding
# Parent: PPP1R3F docking peptide (human); VAPRRVLFADEAL
Variant,normalised enrichment score
E11A,0.318
F8L,0.177
P3A,1.44
R5A L7A,-0.0791
D10A,0.047
R4A,0.876
V6A,-0.0992
R5K,-0.138

# Block 5 — method: RNA Bind-n-Seq; form: RNA; matrix: in vitro; tested at: 100 nM; reference: input RNA pool; reading: higher = stronger binding
# Target: RING finger protein unkempt homolog, zinc fingers 1-6, SBP tag (UNK, Homo sapiens, UniProt Q9C0B0, residues 30-357)
# UniProt Q9C0B0, sequence (30-357, looked up): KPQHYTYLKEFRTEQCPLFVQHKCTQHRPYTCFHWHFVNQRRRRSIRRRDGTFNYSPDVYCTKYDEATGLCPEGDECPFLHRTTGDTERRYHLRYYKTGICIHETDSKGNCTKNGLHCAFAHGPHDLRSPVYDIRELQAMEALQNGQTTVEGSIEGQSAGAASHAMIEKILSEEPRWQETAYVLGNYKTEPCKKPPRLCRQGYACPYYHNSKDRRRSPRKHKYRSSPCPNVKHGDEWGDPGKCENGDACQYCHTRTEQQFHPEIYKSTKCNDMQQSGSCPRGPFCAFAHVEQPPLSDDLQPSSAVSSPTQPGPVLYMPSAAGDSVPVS
# Notes: RNA with constant flanks, vertebrate orthologous sites, ends assumed
Sequence,bound/input enrichment
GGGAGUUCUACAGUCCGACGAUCGCAAUGAAAAAGCAGCCUUUCUCCCAGUCCCCCUUUCACUAGGAGAUACAAACGUUACCAUAGAAGAGCAAUUAAACUCAAUAAAUUUAUCUUUUCAGGAUGAUCCAGACUCCAGUACCACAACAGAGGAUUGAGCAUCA,1.39 ratio
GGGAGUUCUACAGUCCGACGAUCACGCUUUGAUAUUAAAUUUGACAUAAAAAGCAGCUGAUUGUAAGCACAACUCUUUCCUCCUAGCCAUUCAAAAAGGUAAAUGACAAAAAAGAAAACCUACUAGUCUUGAACAAACUGUCACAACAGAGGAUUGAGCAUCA,0.453 ratio
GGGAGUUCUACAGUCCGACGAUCACAUGCUCUCUGCAGGAAGCUGCUAGCCGCUUAGCAUUCUUUUGAUUAGUGAUAUUGAAAAGAAAGGUGUGUGGUGUUUUUUUUUUUUUAAUAUUGAGACUUAAUUAACUAGAAUUUAUUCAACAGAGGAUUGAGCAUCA,1.39 ratio
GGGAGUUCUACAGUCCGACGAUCGGGACGUUUUGAUGUAAAAAUUGAAGUUAAGAGCUGAUCACAAGCACAAAUCUUUCCCACUAGCCAUUUAAUAAGUAAAAAAGAUACAAAAACAAAAACCUACUAGUCUUGAACAAACUGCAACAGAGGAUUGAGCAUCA,2.06 ratio
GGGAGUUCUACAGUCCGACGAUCUGUGAGGGUCUACUGACCGCUCACCACUGAUGUCUGGUAUCUGUAAACACUUUCUGUUCUUAGUCUUUUACUUGUAUAAUUGAUGUUCUUUAAAAUUGUCAGCGUAUAACAGGGCUUAUGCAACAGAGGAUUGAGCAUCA,1.32 ratio
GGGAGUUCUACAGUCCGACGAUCGCUCUAGUUCUUGAGAACCAACACUCGUAAAAGAUUUAGAAAAAAGUUUACAACAUAAUCUAGUUUACCGAAGACGCCUUGUGCUAGAAUACUUUUUAAGAAGUAUUUUUGAAUACCAUUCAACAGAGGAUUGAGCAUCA,0.555 ratio
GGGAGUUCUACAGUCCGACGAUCUGAGUGAAUGAGAGUGAGUGUGUUGUGGUAAAAAAAAAACUUAAGAACCAUCAGGGAGAAAAGUUACAAAUACCAAGAGCCAGAUGGAUUAAAAGUGAAGAUGAAGAGGUCAUUGAAACUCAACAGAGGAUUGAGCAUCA,0.394 ratio
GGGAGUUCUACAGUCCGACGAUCAGGAAAAAAAAAUCAGUAGAAUUCAUACUAAAGUUGAAAGGAUAUCCAAGUAUGUGUUGGUAGUUACUGAAAGAAUUAUAGCUGUUAUUGCCUUGUAUUUAUACCCUUGUUUCAGGUCUCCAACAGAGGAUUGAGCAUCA,0.964 ratio
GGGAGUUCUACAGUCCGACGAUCAGGAAAUGCUGGCUGCAAACCCUCAGGAUCGUCCAGAUGCUUUUGAACUAGAACUCAGAUUAGUACAAAUUGCAUUUAAAGAUAGCAGCUGGGAAACGUGACACAUAUAUUAUUUGCAAACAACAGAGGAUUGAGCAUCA,1 ratio
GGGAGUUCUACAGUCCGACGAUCGAUUUGGACCUUGGAGCCAAACUAGGGAGCUGGCAAAAGUAAAGCAGACCUGUAAAUUACAGCUUCAUGCAUCUGCAUAGCACAGUAAUACCACUAGCAGUUGUGUUAAAGUAUUUAUAACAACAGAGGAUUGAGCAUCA,0.532 ratio
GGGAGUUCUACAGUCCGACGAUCGGGACGCUUUGAUGUAAAAAUUGAAGUUAAGAGCUGAUCACAAGCACACAUCUUUCCCACUAGCCAUUUAAAAAAGUUAAAAAAGAUACAAAAACCUACUAGUCUUGAACAAACUGUCAUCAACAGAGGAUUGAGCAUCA,1.72 ratio

# For quick reference, copied from above (block 5):
Sequence,bound/input enrichment
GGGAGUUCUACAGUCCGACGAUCAGGAAAAAAAAAUCAGUAGAAUUCAUACUAAAGUUGAAAGGAUAUCCAAGUAUGUGUUGGUAGUUACUGAAAGAAUUAUAGCUGUUAUUGCCUUGUAUUUAUACCCUUGUUUCAGGUCUCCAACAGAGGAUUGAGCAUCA,0.964 ratio
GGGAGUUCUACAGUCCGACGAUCAGGAAAUGCUGGCUGCAAACCCUCAGGAUCGUCCAGAUGCUUUUGAACUAGAACUCAGAUUAGUACAAAUUGCAUUUAAAGAUAGCAGCUGGGAAACGUGACACAUAUAUUAUUUGCAAACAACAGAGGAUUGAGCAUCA,1 ratio
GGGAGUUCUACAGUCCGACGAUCUGUGAGGGUCUACUGACCGCUCACCACUGAUGUCUGGUAUCUGUAAACACUUUCUGUUCUUAGUCUUUUACUUGUAUAAUUGAUGUUCUUUAAAAUUGUCAGCGUAUAACAGGGCUUAUGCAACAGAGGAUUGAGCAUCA,1.32 ratio
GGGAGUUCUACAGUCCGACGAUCGCUCUAGUUCUUGAGAACCAACACUCGUAAAAGAUUUAGAAAAAAGUUUACAACAUAAUCUAGUUUACCGAAGACGCCUUGUGCUAGAAUACUUUUUAAGAAGUAUUUUUGAAUACCAUUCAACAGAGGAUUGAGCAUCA,0.555 ratio
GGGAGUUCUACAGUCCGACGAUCUGAGUGAAUGAGAGUGAGUGUGUUGUGGUAAAAAAAAAACUUAAGAACCAUCAGGGAGAAAAGUUACAAAUACCAAGAGCCAGAUGGAUUAAAAGUGAAGAUGAAGAGGUCAUUGAAACUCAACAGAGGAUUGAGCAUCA,0.394 ratio
